# Experimental data pooled from the literature.
# Numbered parts are unrelated; each lists some results of a single study. Substitutions count along the parent as printed.

# Series 1 — method: RNA Bind-n-Seq; form: RNA; sample: in vitro; tested at: 365 nM; baseline: no-protein control; direction: higher = stronger binding
# Target: RNA binding protein fox-1 homolog 2, RRM domain, GST-SBP tag (RBFOX2, Homo sapiens, UniProt O43251-10, residues 100-194)
# Notes: natural RNA segment, single round, ends assumed
# Constant ends, left off below: GGGAGUUCUACAGUCCGACGAUC … UGGAAUUCUCGGGUGCCAA
# Residues (chain): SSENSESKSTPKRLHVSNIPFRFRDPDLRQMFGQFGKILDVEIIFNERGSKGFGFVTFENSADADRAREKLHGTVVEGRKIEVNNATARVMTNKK
Strand,RBNS enrichment (R)
GCUACUCUAAUCUUUUACGUAUUAAAUGCACUAGGCUAGUAGCCCUUGCCUUUCCUUUCCUGAAACUCUUUCAACACAACUGUGUCUAUAUGACUACGGCUCAUGCUUCC,0.302
UCCUCGGGGAGGCCCCUGCCCCCACCCUGCCAGCCCUUCCCAGUCUCAUUAGAGGAAGCUUUCCAAAGUUCUCAGUUAUCAAGACCUCAUCCAGCUCGUCCAAAGGCUUC,0.523
GGUGAUGACGUCAGUCUAAUGAGUUGUUAGGUCACUUGGGAAGGGGAAGAAAUUUAAAUGGGGGAAAAUAAGCCAUCUUUUUAAACAAAAAUUAUUUUACCUACAGAGAG,0.566
AGAAUCCACUUCCACAGGUGGCUGCCCUUGUAAGGAAGAAUGCAUCCCUAAAUGUGGCCACCAGAGAGUUCCAGUGGGCAGAUGUCUGUGGCUGCCCUUCUCAUUUAAGG,1.39
UGCAACUACUCAGGAAUUAUAAAGAUUUUCUGAAAUCUGAGAAGUGGAAUAAGGAAACCCAGUGGAGCUAUUACACUUUUAAAUGUUCUAGCCAAAACAAAUUGCCAGUA,0.579
CCUACAGCCGCCACUGCUCCUCCACCCUGAUCAUCUCACAGGACAGGGUGGACCGGGUUUUUUUUUUUUUUCACACACCUUUGUAUAUGUAAGUUCAUGUAUAUAAUAUG,0.514
AAAGUGAAAAGAGAUUCAACCAAGAGGACAGCUCUGGAGCAGAAAAAUACAUGUUUAUAGGAUGCGAUUGUUUCAACUUUCUUUUUCCAUUUUAAGAAGAUUCCAUUUCG,0.425
GUGUGCUGAUGUUUCCUGGGUGCCCUGGCUCCUUGCAGCAGGGCUGGGCCUGCGAGACCCAAGGCUCACUGCAGCGCGCUCCUGACCCCUCCCUGCAGGGGCUACGUUAG,0.285
GUUGUAUUGUAAGUGGCACUGGGAACCCAGGGUUUCCUUGGGAGUUGAGGCCUUCUUUAUUCCUGCUCUGUCAGCUUUCAUGGUCACUGGAAAUCACUGCCACAGUACAG,0.248
AGAUGCUGAGAGUAGGUGAUAAUGUAUAUUUUACAGAGUGGGGGUUGGCAGGAUGGUGACAUUGAACAUGAUUGCUCUCUGUCUCUUUUUUCAGCUUAUGGGUAUUUAUC,0.684
CCAGGAAGUCCAGUGUACAUUACAGAUUUUCUGGGAGAAAUAGUCCUUCCAGAGAAAGGAUUCCUUCCCAGCCUCCAGGCUGGUGUCUCAUGAGGUGAGGAGGCUGGCCC,0.4
AGUCUGGGAGGACAUCUUUUUAUUUUUACAUGAAUCUUUAAACAAUUCUGUGAGCAGAGUUUCUAGCUGCUGGAUUGUUGUCUGUCUUUAUAGCAGGUCCCAGUGAACCA,0.326

# Series 2 — method: RNA Bind-n-Seq; form: RNA; sample: in vitro; tested at: not given; baseline: input RNA pool; direction: higher = stronger binding
# Target: RING finger protein unkempt homolog, zinc fingers 1-6, GST-SBP tag (UNK, Homo sapiens, UniProt Q9C0B0, residues 30-357)
# Chain of UniProt Q9C0B0 (30-357, looked up): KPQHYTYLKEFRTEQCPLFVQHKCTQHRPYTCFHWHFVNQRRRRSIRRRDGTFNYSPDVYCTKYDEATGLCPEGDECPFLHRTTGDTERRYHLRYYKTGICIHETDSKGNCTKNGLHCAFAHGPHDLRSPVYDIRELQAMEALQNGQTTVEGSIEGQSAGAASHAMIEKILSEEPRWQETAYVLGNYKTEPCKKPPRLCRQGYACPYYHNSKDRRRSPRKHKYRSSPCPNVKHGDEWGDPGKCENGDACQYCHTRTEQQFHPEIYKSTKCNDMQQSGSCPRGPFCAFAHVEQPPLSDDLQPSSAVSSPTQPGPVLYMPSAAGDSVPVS
# Notes: RNA with constant flanks, human and mouse sites, ends assumed
# Constant ends, left off below: GGGAGUUCUACAGUCCGACGAUC … CAACAGAGGAUUGAGCAUCA
Strand,bound/input enrichment
GCUAGGGCAGGGCGGGGGCUCCGGCGCUCGGGCGCGCUGGACCUCGGGGCGCGGGCGGGCGAGGGUGGCAGGAGGGCGGCGAGGGCAAGGGAGGGGACCCGAGGCUGCCUCUCCGCCAGC,1.32 ratio
CUUAUGACUCUUGUGGGUCAUGAUAACUGGGUACGUGGAGUUCUGUUCCAUUCUGGGGGGAAGUUUAUUUUGAGUUGUGCUGAUGACAAGACCCUCCGUGUAUGGGAUUAUAAGAACAAG,0.35 ratio
GACCCCAUGGCAUCCCCCAGAACCGUAACUAUUGUGGCCCUCUCAGUGGCCCUGGGACUCUUCUUUGUUUUCAUGGGGACUAUCAAGCUGACCCCCAGGCUCAGCAAGGAUGCCUACAGU,0.124 ratio
UAGGACAUCUAUUUCACUGUGUCGUUUCCUUCCCUCUUUUGAAAUGAAGACACAGGCUCCACACAUUCGUCCUUUCCAUAGAGCAGGUAUAGGACCAGGUGCAAUAAAAAAAAAUGGCCU,0.361 ratio
GGCGUCCUUUAUCAUAUUUCAAAUCCUAAUGGAGACAAAACAAAAGUGAUGGUCAGUAUUUCUUUGAAAUUCUACAAGGAACUUCAGGCACAUGGAGCUGAUGAGUUGUUAAAGAGAGUG,0.595 ratio
GGCCCCGGAACCCGAGCUGGAGCUGAAGCGCAGGCUGCGGGGCGCGGAGUCGGGAGGCCUGAGUGUUCCUUCCAGCAUGUCGGAGGGGGAGUCCCAGACAGUACUUAGCAGUGGCUCAGA,0.301 ratio
ACCUUCAUUUAACUCAGCUGUCAAUCAGGAAGGUAUUACGUCAAAUGCCAAUAAUGGAUCUACGGCGGCUCAUAAUACUUAUGAUGAGAUUGAAGGAGGUGGCUUCUUGGCAACACCACA,0.203 ratio
GUUAGGAUGAUUCUGAAGAUUGAUGACAUCCGUAAGCCUGGAGAAUCUGAAGAAUAAACUGUACCAUUUACCACUGUGACUAAAUAAAGGGUGUGUCUGUUGUGCUGCGUCUGCAGUUAC,0.56 ratio
UUGUGAACACACAGCCAGUCCGCUUCCAGGCUUUGUUCCUCUGUGUGCUUAGUUUUAAAGACAACUUUGAAAUAAACAAUGAAAUAAAAGAUGUCACUAAAAUCUUUGAGGCUCCUGAAC,0.461 ratio
UCCACGCCUGAGUUCUACCAAGUAUGCCACACCAAAAAGGAUUAUGAAGAAAUUGGACCUAGCAUUUGUCGUCACAAUCCAGUGUUUGGAGUCAUGUCGUAAAAUUGGCUUCAUAGUUAU,8.8 ratio
UCUCCUGAAGAACAUCUAGAAGAAAUGAUGAAGAUGAUGUCGCCCAAUAAGCUGCACACUAACUUUCACAUUCCUAAAAAAGGCCCACCUGCCAAGAAACCAGGGAAGCACAGUGACAAG,0.265 ratio

# Series 3 — method: protein binding microarray; form: double-stranded DNA, one strand shown; sample: in vitro; tested at: not given; baseline: not given; direction: higher = stronger binding
# Target: Histone acetyltransferase KAT6A, both winged helices, GST fusion (KAT6A, Homo sapiens, UniProt Q92794, residues 1-181)
# Notes: 8-mer, flanks averaged, mean of 2 arrays, mostly near background
# Construct (chain): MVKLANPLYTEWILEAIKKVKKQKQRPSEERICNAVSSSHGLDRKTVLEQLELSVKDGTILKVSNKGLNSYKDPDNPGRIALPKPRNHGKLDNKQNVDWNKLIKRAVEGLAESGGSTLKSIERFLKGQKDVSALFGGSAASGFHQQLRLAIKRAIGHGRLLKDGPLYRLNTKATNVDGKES
Strand,E-score
GCTCTTCC,0.0614
CCATTATC,-0.0201
AAGCCCCT,-0.13
CATCATAG,-0.22
GCTTCTAC,0.00314
AGTGTTTG,-0.146
ATCGCATG,-0.027
CGGGTCTC,0.181
GACGCCTA,0.0825
GCTCGTCC,-0.0658
CGTTAACA,0.0967
CTCGGTCA,0.0841
AGCCTGTG,-0.222
CGAACAGC,0.133
AGGTTATG,-0.216
CTTTTTAC,0.0032
CGCCGGAG,0.214
CGCTGACG,0.249

# Series 4 — target: CCNF, cyclin fold, Cln2 fusion (human); method: yeast growth competition, sequencing; sample: yeast; notes: strong parent motif; baseline: not given; direction: higher = stronger binding
# Starting sequence: GMNC docking peptide (human); KNAKRNLSSEFAN
Substitution,normalised enrichment score
S8W,1.09
A12R,0.69
N6H,0.399
N6D,0.138
E10V,1.02
N6E,0.634
S9Y,1.98
N2D,0.469
F11Y,0.58
L7K,0.331
A3V,1.65
E10A,0.509
N6S,1.73
E10I,1.1
S8R,0.39
S9D,1.34
K4H,0.233

# Series 5 — method: universal PBM; form: double-stranded DNA, one strand shown; sample: in vitro; tested at: 600 nM; direction: higher = stronger binding
# Target: Sal-like protein 4, full length isoform A (SALL4, Homo sapiens, UniProt Q9UJQ4, residues 1-1053)
# Chain of UniProt Q9UJQ4 (whole entry, looked up): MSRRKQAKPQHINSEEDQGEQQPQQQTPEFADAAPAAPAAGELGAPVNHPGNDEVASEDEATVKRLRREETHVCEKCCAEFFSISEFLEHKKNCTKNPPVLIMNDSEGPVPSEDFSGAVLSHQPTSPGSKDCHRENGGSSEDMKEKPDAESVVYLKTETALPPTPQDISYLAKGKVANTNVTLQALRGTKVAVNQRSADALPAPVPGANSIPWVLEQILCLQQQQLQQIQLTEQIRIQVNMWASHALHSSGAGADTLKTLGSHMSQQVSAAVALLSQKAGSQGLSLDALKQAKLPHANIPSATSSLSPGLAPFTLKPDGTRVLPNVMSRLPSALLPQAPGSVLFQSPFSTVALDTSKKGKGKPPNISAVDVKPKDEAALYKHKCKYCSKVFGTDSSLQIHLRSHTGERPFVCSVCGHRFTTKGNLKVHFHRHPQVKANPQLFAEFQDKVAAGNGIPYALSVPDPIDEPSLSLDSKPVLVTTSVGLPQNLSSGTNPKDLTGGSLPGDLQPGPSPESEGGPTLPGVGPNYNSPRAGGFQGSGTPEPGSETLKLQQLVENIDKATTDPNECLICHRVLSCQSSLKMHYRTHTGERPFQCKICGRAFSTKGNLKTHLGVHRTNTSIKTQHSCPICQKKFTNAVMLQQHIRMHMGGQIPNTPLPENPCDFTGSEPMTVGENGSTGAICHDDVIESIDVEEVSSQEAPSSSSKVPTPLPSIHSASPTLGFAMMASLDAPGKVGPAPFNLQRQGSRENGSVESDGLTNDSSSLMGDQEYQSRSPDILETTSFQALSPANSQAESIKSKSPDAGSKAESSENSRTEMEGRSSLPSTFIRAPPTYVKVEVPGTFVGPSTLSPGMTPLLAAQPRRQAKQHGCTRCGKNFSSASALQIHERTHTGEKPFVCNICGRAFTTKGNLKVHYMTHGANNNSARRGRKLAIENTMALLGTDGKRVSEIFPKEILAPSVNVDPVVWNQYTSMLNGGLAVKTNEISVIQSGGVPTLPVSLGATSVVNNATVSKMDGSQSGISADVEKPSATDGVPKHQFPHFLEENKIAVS
# Notes: 8-mer, flanks averaged, mean of replicates
Strand,E-score
AGATGATA,0.228
GTAACACA,0.174
AGTTTCGG,-0.101
AGGTTTTA,0.0569
TGGTGGAA,-0.0595
GACGGTGA,-0.145
CAGTCGGC,-0.319
ATCCAGGA,-0.0814
CCCGCGAG,-0.215
GGTGGATA,0.0565
CCTCTTTC,-0.141
AAATGCTG,0.0951
TAGGCCGA,-0.251
ACTACGAA,0.125
GCGGCAGA,-0.282
AGGCGTCG,-0.306
GATAGTGA,0.161
AATTACAG,0.269
CTAGGACC,-0.305
CGCTAAGC,-0.216
AGCTTACG,-0.115
CTTCGCAC,-0.0167
ATCCGACG,-0.12
AAGTGATT,0.154
CTGAGGCC,-0.321

# Some of these lines once more (series 5):
Strand,E-score
CTTCGCAC,-0.0167
GATAGTGA,0.161
AGTTTCGG,-0.101
AGCTTACG,-0.115
AGGCGTCG,-0.306
ATCCGACG,-0.12
AATTACAG,0.269
CAGTCGGC,-0.319
